Experimental data collected from several papers.
Protocols differ between the studies behind these lines. Values joined by “and” are separate records of one study, mostly repeats; a detail may differ. Numbers after ± are the reported error. Converted amounts (≈) assume the structure as drawn.

Nc1ncn([C@@H]2O[C@H](CO)[C@@H](O)[C@H]2O)c(=O)n1 — IC90 (influenza A virus H1N1; viral replication, NP ELISA; MDCK): 9.24 ± 0.28 µM
CCCCCCCCCCCCCCCC[N+](C)(C)Cc1ccc(C[N+](C)(C)CCCCCCCCCCCCCCCC)cc1.[Br-].[Br-] — HA titre reduction (influenza A virus A/PR/8/34 (H1N1); concentration not given, post-treatment): 2.5 ± 0.5 log units
CC(=O)N[C@H]1[C@H]([C@H](O)[C@H](O)CO)OC(C(=O)O)=C[C@@H]1N=C(N)N — EC50 (influenza B virus; viral cytopathic effect, MTS; MDCK): 2 µM
CCCCCCCCCCCCCCCC[N+](C)(C)CCCCCCCCCCCC[N+](C)(C)CCCCCCCCCCCCCCCC.[Br-].[Br-] — protection (influenza A virus A/PR/8/34 (H1N1); concentration not given, pre-treatment): 68.9 ± 8.9%
[Ca+2] — inhibition (Halyomorpha halys; inward current, inhibitor, whole-cell patch clamp; 1 mM, Nan-Iav W701A): 8.57%
CC(N)C12CC3CC(CC(C3)C1)C2 (centres unmarked) — EC50 (influenza B virus; viral cytopathic effect, MTS; MDCK): > 200 µM
CCCCCCCCCCCCCCCCCC[N+](C)(C)CCCCCCCCCCCC[N+](C)(C)CCCCCCCCCCCCCCCCCC.[Br-].[Br-] — protection (influenza A virus A/PR/8/34 (H1N1); concentration not given, post-treatment): 75.9 ± 3.1%
CS(=O)(=O)Nc1ncn(-c2cc(F)c(COc3ccc(OS(=O)(=O)F)cc3)c(F)c2)n1 — lung CFU reduction (Mycobacterium tuberculosis Erdman-Lux; BALB/c mouse; oral, 20 mg/kg once daily, 12 days, unit not given; baseline: untreated): 3.1
CC(C)C(=O)OC[C@H]1O[C@@H](n2ccc(NO)nc2=O)[C@H](O)[C@@H]1O — IC90 (influenza A virus H1N1; viral replication, NP ELISA; MDCK): 81.4 ± 23.2 µM
CCCCCCCCCCCC[N+](C)(C)CCCCCCCCCC[N+](C)(C)CCCCCCCCCCCC.[Br-].[Br-] — protection (influenza A virus A/PR/8/34 (H1N1); concentration not given, post-treatment): 53.7 ± 5.7%
COc1cc(NC(=O)Cn2ccc3cc(F)c(-c4cnn(C)c4)cc32)cc(OC)c1OC — EC50 fold shift (Plasmodium falciparum; Dd2 PfATP4 G358S; 72 h; baseline: mutant over parental): 10 fold
CCCCCCCCCCCCCCCCCC[N+](C)(C)Cc1ccc(C[N+](C)(C)CCCCCCCCCCCCCCCCCC)cc1.[Br-].[Br-] — protection (influenza A virus A/PR/8/34 (H1N1); concentration not given, post-treatment): 62.6 ± 6.9%
NC(=O)c1ncn([C@@H]2O[C@H](CO)[C@@H](O)[C@H]2O)n1 — IC90 (influenza A virus H1N1; viral replication, NP ELISA; MDCK): 8.82 ± 1.09 µM
CCCCCCC#Cc1cncc(-c2nnc(SCc3cc([N+](=O)[O-])cc([N+](=O)[O-])c3)n2C)c1 — MIC (Mycobacterium avium; no activity below value): ≥ 200 µM
N#C[C@@]1(n2ccc(N)nc2=O)O[C@H](CO)[C@@H](O)[C@H]1O — EC50 (influenza B virus; viral replication, cell-based): > 40 µM
Cn1c(=O)ccc2ccc(F)c(CCNC[C@H]3CN(c4cnc5c(n4)NC(=O)CO5)C(=O)O3)c21 — MIC90 (Burkholderia gladioli): 2 µg/mL (≈ 4.27 µM)
O=C(O)c1cn(C2CC2)c2cc(N3CCNCC3)c(F)cc2c1=O — MIC (Vibrio cholerae; El Tor): 0.06 µM
O=c1ccn([C@@H]2O[C@](F)(CO)[C@@H](O)[C@H]2O)c(=O)[nH]1 — normalized viral replication (human respiratory syncytial virus; recombinant reporter virus; concentration not given, scale 0 to 100, added: adenosine 11.1 µM): 0 and 0.04
CCCCCCCCCCCC[N+](C)(C)CCCCCC[N+](C)(C)CCCCCCCCCCCC.[Br-].[Br-] — HA titre reduction (influenza A virus A/PR/8/34 (H1N1); concentration not given, post-treatment): 1.5 ± 0.5 log units
O=C1c2c(O)c(=O)ccn2N([C@@H]2c3ccccc3SCc3c2ccc(F)c3F)[C@@H]2COCCN12 — lung virus titre (influenza A virus H1N1; A/WSN/33, BALB/c mice, lung; subcutaneous, 2 mg/kg every 6 h, 24 h): 3.67 log10 TCID50/mL and 2 log10 TCID50/mL and 1.5 log10 TCID50/mL and 2.33 log10 TCID50/mL and 3 log10 TCID50/mL
NC12CC3CC(CC(C3)C1)C2 — EC50 (influenza A virus H1N1; viral cytopathic effect, MTS; MDCK): 2.1 µM
Nc1ccn([C@@H]2O[C@H](CO)[C@@H](O)C2(F)F)c(=O)n1 — IC90 (influenza A virus H1N1; viral replication, NP ELISA; MDCK): 1.32 ± 0.44 µM
CCCCCCCCCCCC[N+](C)(C)CCCNCCC[N+](C)(C)CCCCCCCCCCCC.[Br-].[Br-] — HA titre reduction (influenza A virus A/PR/8/34 (H1N1); concentration not given, co-treatment): 5 ± 1 log units
CO[C@H]1/C=C/O[C@@]2(C)Oc3c(C)c(O)c4c(O)c(c(/C=N/N5CCN(C)CC5)c(O)c4c3C2=O)NC(=O)/C(C)=C\C=C\[C@H](C)[C@H](O)[C@@H](C)[C@@H](O)[C@@H](C)[C@H](OC(C)=O)[C@@H]1C — MIC (Mycobacterium ulcerans; ATCC 35840): 0.1 to 0.2 µg/mL
CC[C@H](C)[C@H](NC(=O)[C@H](C)NC(=O)[C@H](CCCNC(=N)N)NC(=O)[C@H](CCCNC(=N)N)NC(=O)[C@@H](N)CCCNC(=N)N)C(=O)N[C@@H](CO)C(=O)NCC(=O)N[C@@H](CO)C(=O)N[C@@H](CC(C)C)C(=O)N[C@H](C(=O)N[C@H](C(=O)N[C@@H](CC(C)C)C(=O)N[C@@H](Cc1ccccc1)C(=O)NCC(=O)N[C@@H](Cc1ccc(O)cc1)C(=O)N[C@@H](CCCNC(=N)N)C(=O)N[C@@H](CCCNC(=N)N)C(=O)N[C@@H](CCCNC(=N)N)C(N)=O)[C@@H](C)O)C(C)C — MIC (ESKAPE pathogen panel; range over entire panel): 8 to 128 µM
NC[C@H]1O[C@H](O[C@H]2[C@H](O)[C@@H](O[C@H]3O[C@H](CO)[C@@H](O)[C@H](N)[C@H]3O)[C@H](N)C[C@@H]2N)[C@H](O)[C@@H](O)[C@@H]1O — growth inhibition (Vibrio cholerae; concentration not given, 0.2 mg/mL): 86%

For quick reference, copied from above:
CCCCCCCCCCCC[N+](C)(C)CCCCCCCCCC[N+](C)(C)CCCCCCCCCCCC.[Br-].[Br-] — protection (influenza A virus A/PR/8/34 (H1N1); concentration not given, post-treatment): 53.7 ± 5.7%
COc1cc(NC(=O)Cn2ccc3cc(F)c(-c4cnn(C)c4)cc32)cc(OC)c1OC — EC50 fold shift (Plasmodium falciparum; Dd2 PfATP4 G358S; 72 h; baseline: mutant over parental): 10 fold
